Assay results pooled from the literature.
Each line is one published result; not all experiments were run side by side. pEC50: −log10 of the molar value.

Under “log2 fold change”, `Cc1cc(Nc2ncc(Cl)c(Nc3ccccc3S(=O)(=O)C(C)C)n2)c(OC(C)C)cc1C1CCNCC1` is recorded as 1 (CLB-BAR; LC-MS/MS phosphoproteomics, refers to: A2M phosphorylation; 200 nM, 60 min; baseline: untreated).
With `CSc1cc(Oc2ccnc3[nH]c(=O)cnc23)ccc1NC(=O)Nc1cc(C(C)(C)C)nn1-c1ccccc1` the phospho/total ratio was 0.46 (patient-derived cell line; RPPA, refers to: mTOR phosphosite 2448; human; 1 µM, 4 h; baseline: DMSO).
The pEC50 of `CCn1cc(-c2cc(Cn3ccnc3)cc3c2CCN([C@H](c2cc(OC)ccn2)C2CC2)C3=O)c(C(F)(F)F)n1` is reported as 7.69 (DOHH-2; cell growth, inhibitor; 120 h).
For `Cn1cc(Nc2nccc(-c3ccc4c(c3)CN(C3COC3)CC[C@H]4NC(=O)c3cn(C(C)(C)C)nn3)n2)cn1`, “number of upregulated genes” read 26 (human B cells; 100 nM, 64 h, stimulation-upregulated genes, with: CD40L, anti-IgM, IL-21).
`COc1ccc2c(N(C)c3ccc(/C(C)=N/OCCN)cc3)c3c(Cl)coc3nc2c1` has a growth inhibition of 55% (RWPE-1; trypan blue exclusion; 1 µM, 72 h).
With `COc1cnc2cccc(N3CCc4c(cc(Cn5ccnc5C)cc4-c4cn(C)nc4C(F)(F)F)C3=O)c2c1` the pEC50 was 7.96 (ZR-75-30; cell growth, inhibitor; 120 h).
For `C=CC(=O)N1CCC[C@@H](n2nc(-c3ccc(Oc4ccccc4)cc3)c3c(N)ncnc32)C1`, the GI50 was 6.05 µM (REC-BTK^KO-OE; cell growth; 72 h).
`CCCCc1nc(Cl)c(CO)n1Cc1ccc(-c2ccccc2-c2nn[nH]n2)cc1` — result for “log2 fold change”: -3.54 (human PBMC; RNA-seq, refers to: GPR34 mRNA; 10 µg/mL, 24 h; baseline: untreated control).
With `Cn1cc(C2=C(c3ccc(Cl)cc3Cl)C(=O)NC2=O)c2ccccc21` the Tau phosphorylation was 12 fold (primary human cortical neurons; Western blot, refers to: Tau phospho-Ser199; 5 µM, 48 h, with: HIV Tat 100 ng/mL and maraviroc 2.5 µM; baseline: Tat-treated cells, decrease).
For `O=C(/C=C/C=C/C=C/C1CCCCC1)NC1=C[C@@](O)(/C=C/C=C/C=C/C(=O)NC2=C(O)CCC2=O)[C@@H]2O[C@@H]2C1=O`, the GI50 was 18.8 µM (sngm; cell growth, inhibitor, CellTiter-Glo luminescence; 78 h; baseline: day 0 cell count).
`O=P1(C2CCCCC2)CCCCC1` — result for “early apoptotic cells”: 2.55% (SW480; annexin V/PI flow cytometry; IC50, 72 h).
With `CCn1cc(-c2cc(Cn3ccoc3=N)cc3c2CCN([C@@H](C)c2cc(OC)ccn2)C3=O)c(C(F)(F)F)n1` the pEC50 was 5.08 (RERF-LC-MS; cell growth, inhibitor; 120 h).
`Cn1cc(-c2ccc(-c3cncc(Cl)c3N3CCC4(CCNC4=O)CC3)cc2)cn1` — result for “fold change in expression”: -1.04 (COLO 205; microarray, refers to: STAMBPL1; concentration not given, 2 h, gene set AMSH-2; baseline: untreated cells).
`COc1ccc2c(C)cc(SCC(=O)N(C)C3CCS(=O)(=O)C3)nc2c1` (centres unmarked) gave an efficacy of 66% (LDR; silenced CMV-GFP reporter derepression, qHTS).

A few entries again:
`Cn1cc(-c2ccc(-c3cncc(Cl)c3N3CCC4(CCNC4=O)CC3)cc2)cn1` — result for “fold change in expression”: -1.04 (COLO 205; microarray, refers to: STAMBPL1; concentration not given, 2 h, gene set AMSH-2; baseline: untreated cells).
`CCCCc1nc(Cl)c(CO)n1Cc1ccc(-c2ccccc2-c2nn[nH]n2)cc1` — result for “log2 fold change”: -3.54 (human PBMC; RNA-seq, refers to: GPR34 mRNA; 10 µg/mL, 24 h; baseline: untreated control).
